# Measured values of several laboratories.
# Parts stem from different laboratories: compare values within a part only. Values joined by “and” are separate records of one study, mostly repeats; a detail may differ.
# Chain of UniProt Q14012 (whole entry, looked up): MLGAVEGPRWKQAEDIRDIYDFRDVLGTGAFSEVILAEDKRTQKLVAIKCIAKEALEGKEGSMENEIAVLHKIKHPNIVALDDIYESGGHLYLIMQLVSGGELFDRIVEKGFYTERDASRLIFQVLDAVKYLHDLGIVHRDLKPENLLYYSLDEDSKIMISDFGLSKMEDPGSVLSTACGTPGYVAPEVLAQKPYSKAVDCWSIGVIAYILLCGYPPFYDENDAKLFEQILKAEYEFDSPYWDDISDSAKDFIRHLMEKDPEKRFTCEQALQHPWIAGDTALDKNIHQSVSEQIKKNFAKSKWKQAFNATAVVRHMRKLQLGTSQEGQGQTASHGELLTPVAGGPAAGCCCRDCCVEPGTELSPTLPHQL
# Chain of UniProt Q9NQU5 (whole entry, looked up): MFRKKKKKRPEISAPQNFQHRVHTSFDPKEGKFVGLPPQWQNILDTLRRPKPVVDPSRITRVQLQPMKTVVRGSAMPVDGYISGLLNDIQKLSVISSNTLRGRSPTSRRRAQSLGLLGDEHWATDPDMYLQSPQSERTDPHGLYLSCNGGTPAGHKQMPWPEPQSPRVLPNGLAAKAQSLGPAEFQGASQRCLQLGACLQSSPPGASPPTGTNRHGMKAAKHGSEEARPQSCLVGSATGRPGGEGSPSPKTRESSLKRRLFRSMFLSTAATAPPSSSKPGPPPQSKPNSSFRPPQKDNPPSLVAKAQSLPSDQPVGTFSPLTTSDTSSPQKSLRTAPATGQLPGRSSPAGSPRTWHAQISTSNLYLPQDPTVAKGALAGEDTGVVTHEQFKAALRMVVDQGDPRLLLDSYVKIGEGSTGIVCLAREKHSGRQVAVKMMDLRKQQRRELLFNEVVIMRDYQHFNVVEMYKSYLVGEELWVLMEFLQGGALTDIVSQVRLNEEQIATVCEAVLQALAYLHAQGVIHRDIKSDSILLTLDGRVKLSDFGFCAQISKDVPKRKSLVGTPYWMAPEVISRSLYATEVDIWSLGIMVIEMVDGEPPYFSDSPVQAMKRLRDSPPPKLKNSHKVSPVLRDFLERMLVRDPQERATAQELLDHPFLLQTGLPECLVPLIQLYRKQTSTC
# Chain of UniProt Q9NYL2 (whole entry, looked up): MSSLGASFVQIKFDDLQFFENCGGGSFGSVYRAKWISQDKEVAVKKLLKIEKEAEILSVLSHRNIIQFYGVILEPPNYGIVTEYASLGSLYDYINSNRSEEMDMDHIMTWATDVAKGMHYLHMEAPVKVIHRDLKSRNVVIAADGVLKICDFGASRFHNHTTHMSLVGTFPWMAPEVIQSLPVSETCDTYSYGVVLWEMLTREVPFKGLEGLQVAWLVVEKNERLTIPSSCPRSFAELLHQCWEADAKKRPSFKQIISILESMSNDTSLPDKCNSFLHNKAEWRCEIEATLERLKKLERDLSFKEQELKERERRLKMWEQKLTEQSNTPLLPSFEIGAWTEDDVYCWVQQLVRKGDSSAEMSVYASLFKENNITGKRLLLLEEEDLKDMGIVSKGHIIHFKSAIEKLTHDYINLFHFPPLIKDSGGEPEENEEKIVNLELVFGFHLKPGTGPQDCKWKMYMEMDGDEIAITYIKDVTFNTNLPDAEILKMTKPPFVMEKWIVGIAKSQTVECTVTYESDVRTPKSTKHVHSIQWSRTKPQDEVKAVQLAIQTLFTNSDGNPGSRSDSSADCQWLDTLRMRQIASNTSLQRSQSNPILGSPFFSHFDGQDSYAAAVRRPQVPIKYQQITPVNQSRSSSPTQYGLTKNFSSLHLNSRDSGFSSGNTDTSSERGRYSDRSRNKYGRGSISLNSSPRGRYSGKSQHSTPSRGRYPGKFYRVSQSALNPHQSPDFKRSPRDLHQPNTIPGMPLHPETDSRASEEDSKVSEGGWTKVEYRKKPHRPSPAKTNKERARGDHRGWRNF
# Chain of UniProt P49759 (whole entry, looked up): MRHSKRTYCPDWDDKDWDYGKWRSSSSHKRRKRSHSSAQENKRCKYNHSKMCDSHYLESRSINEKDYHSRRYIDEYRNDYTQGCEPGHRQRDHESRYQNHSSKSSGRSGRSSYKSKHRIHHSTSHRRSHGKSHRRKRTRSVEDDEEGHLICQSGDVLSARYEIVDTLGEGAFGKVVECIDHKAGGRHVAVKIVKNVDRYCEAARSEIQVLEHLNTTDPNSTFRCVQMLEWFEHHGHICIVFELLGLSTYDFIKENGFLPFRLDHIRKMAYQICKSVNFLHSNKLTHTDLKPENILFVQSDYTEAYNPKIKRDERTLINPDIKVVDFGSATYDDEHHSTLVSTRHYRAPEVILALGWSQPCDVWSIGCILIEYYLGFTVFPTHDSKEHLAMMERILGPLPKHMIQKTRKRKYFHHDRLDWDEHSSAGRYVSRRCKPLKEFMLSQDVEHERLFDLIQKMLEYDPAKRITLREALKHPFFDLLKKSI
# Chain of UniProt Q13153 (whole entry, looked up): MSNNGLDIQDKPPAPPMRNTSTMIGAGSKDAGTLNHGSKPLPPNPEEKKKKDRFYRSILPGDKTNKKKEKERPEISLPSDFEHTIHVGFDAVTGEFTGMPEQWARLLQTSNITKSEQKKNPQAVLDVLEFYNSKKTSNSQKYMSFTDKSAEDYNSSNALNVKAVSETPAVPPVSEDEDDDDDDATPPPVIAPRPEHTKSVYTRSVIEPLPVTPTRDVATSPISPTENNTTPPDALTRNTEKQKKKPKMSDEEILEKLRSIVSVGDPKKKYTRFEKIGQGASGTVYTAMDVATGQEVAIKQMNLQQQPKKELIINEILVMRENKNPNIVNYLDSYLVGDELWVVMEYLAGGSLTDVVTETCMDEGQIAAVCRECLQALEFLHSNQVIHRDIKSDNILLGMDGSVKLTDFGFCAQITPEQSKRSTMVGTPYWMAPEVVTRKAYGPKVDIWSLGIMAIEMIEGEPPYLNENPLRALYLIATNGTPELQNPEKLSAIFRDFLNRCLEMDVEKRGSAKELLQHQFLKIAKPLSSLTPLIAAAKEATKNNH
# Chain of UniProt Q8N5S9 (whole entry, looked up): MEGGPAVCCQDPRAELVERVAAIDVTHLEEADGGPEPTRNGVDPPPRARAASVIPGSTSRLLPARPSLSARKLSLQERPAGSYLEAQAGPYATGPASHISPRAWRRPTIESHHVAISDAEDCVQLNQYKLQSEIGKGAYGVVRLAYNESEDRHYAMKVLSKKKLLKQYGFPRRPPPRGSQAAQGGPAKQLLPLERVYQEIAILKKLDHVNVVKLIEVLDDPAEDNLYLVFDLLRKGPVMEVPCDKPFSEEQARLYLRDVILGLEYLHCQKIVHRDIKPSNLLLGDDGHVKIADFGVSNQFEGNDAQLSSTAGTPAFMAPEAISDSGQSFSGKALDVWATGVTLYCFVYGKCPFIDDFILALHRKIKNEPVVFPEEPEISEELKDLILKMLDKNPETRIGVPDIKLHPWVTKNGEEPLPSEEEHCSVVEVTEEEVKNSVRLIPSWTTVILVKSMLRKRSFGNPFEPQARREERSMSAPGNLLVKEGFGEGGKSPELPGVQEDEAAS
# Chain of UniProt P29317 (whole entry, looked up): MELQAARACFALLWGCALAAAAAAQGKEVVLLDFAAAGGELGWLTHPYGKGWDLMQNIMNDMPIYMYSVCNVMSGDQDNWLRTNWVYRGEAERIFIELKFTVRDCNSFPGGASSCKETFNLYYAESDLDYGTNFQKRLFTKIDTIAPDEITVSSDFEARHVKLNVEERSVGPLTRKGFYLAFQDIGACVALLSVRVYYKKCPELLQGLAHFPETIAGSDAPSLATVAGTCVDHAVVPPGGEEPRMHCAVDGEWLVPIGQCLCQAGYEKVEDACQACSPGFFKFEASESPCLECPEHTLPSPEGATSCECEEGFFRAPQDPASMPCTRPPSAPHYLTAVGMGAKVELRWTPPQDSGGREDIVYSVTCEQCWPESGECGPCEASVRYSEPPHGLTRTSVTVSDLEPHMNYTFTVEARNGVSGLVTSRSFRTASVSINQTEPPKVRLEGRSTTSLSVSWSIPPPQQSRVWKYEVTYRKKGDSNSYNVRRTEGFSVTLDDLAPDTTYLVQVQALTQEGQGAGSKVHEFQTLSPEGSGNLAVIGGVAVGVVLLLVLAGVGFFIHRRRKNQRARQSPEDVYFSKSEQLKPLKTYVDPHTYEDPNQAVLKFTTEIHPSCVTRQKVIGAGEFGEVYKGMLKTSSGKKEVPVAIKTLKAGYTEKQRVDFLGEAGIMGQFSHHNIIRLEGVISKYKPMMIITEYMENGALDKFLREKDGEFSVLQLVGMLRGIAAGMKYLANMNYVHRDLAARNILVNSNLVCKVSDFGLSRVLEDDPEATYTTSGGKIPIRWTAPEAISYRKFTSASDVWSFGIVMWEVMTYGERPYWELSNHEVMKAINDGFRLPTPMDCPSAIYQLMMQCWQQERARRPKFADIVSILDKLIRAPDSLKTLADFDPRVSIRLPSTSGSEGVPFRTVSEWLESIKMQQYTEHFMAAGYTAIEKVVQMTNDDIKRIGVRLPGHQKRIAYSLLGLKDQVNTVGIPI

# Sample 1
# Structure (SMILES): N#CC(c1ccnc(NCCc2cccnc2)n1)c1nc2ccccc2s1 (centres unmarked)
# Read-out: enzyme activity
# Mode: inhibitor
# Concentration: 0.5 µM
# Reference: control
target,remaining activity
"Serine/threonine-protein kinase PAK 1 (PAK1, Homo sapiens, UniProt Q13153)",96.5%
"Cyclin-dependent kinase 2, with cyclin E (CDK2, Homo sapiens, UniProt P24941)",82.7%
"Casein kinase I isoform epsilon (CSNK1E, Homo sapiens, UniProt P49674)",74.9%
"Vascular endothelial growth factor receptor 1 (FLT1, Homo sapiens, UniProt P17948)",74%
"Muscle, skeletal receptor tyrosine-protein kinase (MUSK, Homo sapiens, UniProt O15146)",14.8%
"Tyrosine-protein kinase JAK1 (JAK1, Homo sapiens, UniProt P23458)",113%
"Serine/threonine-protein kinase PAK 6 (PAK6, Homo sapiens, UniProt Q9NQU5)",97.6%
"Ephrin type-A receptor 6 (EPHA6, Homo sapiens, UniProt Q9UF33)",87.1%
"Ephrin type-A receptor 2 (EPHA2, Homo sapiens, UniProt P29317)",103%
"Tyrosine-protein kinase Tec (TEC, Homo sapiens, UniProt P42680)",104%
"Tyrosine-protein kinase receptor TYRO3 (TYRO3, Homo sapiens, UniProt Q06418)",98.3%
"Insulin-like growth factor 1 receptor (IGF1R, Homo sapiens, UniProt P08069)",100%
"SRSF protein kinase 1 (SRPK1, Homo sapiens, UniProt Q96SB4)",97%
"Calcium/calmodulin-dependent protein kinase kinase 1 (CAMKK1, Homo sapiens, UniProt Q8N5S9)",101%
"Mitogen-activated protein kinase kinase kinase 20 (MAP3K20, Homo sapiens, UniProt Q9NYL2)",90.4%
"Serine/threonine-protein kinase Sgk2 (SGK2, Homo sapiens, UniProt Q9HBY8)",100%
"Calcium/calmodulin-dependent protein kinase type 1 (CAMK1, Homo sapiens, UniProt Q14012)",101%
"Dual specificity protein kinase CLK1 (CLK1, Homo sapiens, UniProt P49759)",75.4%
"Casein kinase I isoform delta (CSNK1D, Homo sapiens, UniProt P48730)",65%
"Dual specificity protein kinase CLK2 (CLK2, Homo sapiens, UniProt P49760)",48.5%
"Serine/threonine-protein kinase SIK2 (SIK2, Homo sapiens, UniProt Q9H0K1)",96.4%
"Protein kinase C theta type (PRKCQ, Homo sapiens, UniProt Q04759)",104%

# Sample 2
# Technique: logD(dd/w) and ALogP
# Notes: JT method
Structure (SMILES),lipophilic permeability efficiency
CC(C)C[C@@H]1NC(=O)[C@@H](C)NC(=O)[C@H](C)NC(=O)[C@H](C)NC(=O)[C@H](C(C)C)NC(=O)[C@H](CC(C)C)NC(=O)[C@@H](CC(C)C)NC1=O,1.95
CC(C)C[C@@H]1NC(=O)[C@H](CC(C)C)NC(=O)[C@@H](C(C)C)NC(=O)[C@H](CC(C)C)NC(=O)[C@H](C(C)C)NC(=O)[C@H](C)NC(=O)[C@H](C)NC1=O,2.68
CC(C)C[C@@H]1NC(=O)[C@H](C)NC(=O)[C@@H](CC(C)C)NC(=O)[C@H](CC(C)C)NC(=O)[C@@H](CCC(=O)N2CCCC2)NC(=O)[C@H](CC(C)C)NC(=O)[C@@H](CC(C)C)NC1=O,2.23
CC(C)C[C@@H]1NC(=O)[C@H](CC(C)C)NC(=O)[C@@H](CC(C)C)NC(=O)[C@@H](C)NC(=O)[C@H](C)NC(=O)[C@H](Cc2cscn2)NC(=O)[C@H](CCC(=O)N2CCCC2)NC1=O,1.88
CC(C)C[C@@H]1NC(=O)[C@H](CC(C)C)NC(=O)[C@H](CC(C)C)NC(=O)[C@H](CC(C)C)NC(=O)[C@H](C(C)C)NC(=O)[C@H](Cc2cscn2)NC(=O)[C@H](C)NC1=O,2.84
CC(C)C[C@@H]1NC(=O)[C@H](CC(C)C)NC(=O)[C@H](CC(C)C)NC(=O)[C@H](CC(C)C)NC(=O)[C@@H](CCC(=O)N2CCCC2)NC(=O)[C@H](C)NC(=O)[C@H](C)NC1=O,2.07
CC(C)C[C@@H]1NC(=O)[C@H](C)NC(=O)[C@H](C)NC(=O)[C@H](CC(C)C)NC(=O)[C@H](C(C)C)NC(=O)[C@H](CC(C)C)NC(=O)[C@@H](CC(C)C)NC1=O,2.06
CC(C)C[C@@H]1NC(=O)[C@H](CC(C)C)NC(=O)[C@@H](C(C)C)NC(=O)[C@H](C)NC(=O)[C@H](C(C)C)NC(=O)[C@H](C)NC(=O)[C@H](C)NC1=O,2.36
CC(C)C[C@@H]1NC(=O)[C@H](CC(C)C)NC(=O)[C@@H](C(C)C)NC(=O)[C@H](C)NC(=O)[C@@H](Cc2cscn2)NC(=O)[C@@H](CC(C)C)NC(=O)[C@H](C)NC1=O,2.16
CC(C)C[C@@H]1NC(=O)[C@@H](C)NC(=O)[C@@H](CC(C)C)NC(=O)[C@@H](C(C)C)NC(=O)[C@H](C)NC(=O)[C@H](CC(C)C)NC(=O)[C@@H](CC(C)C)NC1=O,2.64
CC(C)C[C@@H]1NC(=O)[C@H](CC(C)C)NC(=O)[C@@H](CC(C)C)NC(=O)[C@H](CC(C)C)NC(=O)[C@H](C(C)C)NC(=O)[C@H](C)NC(=O)[C@H](C)NC1=O,2.82
CC(C)C[C@@H]1NC(=O)[C@H](C)NC(=O)[C@H](CCC(=O)N2CCCC2)NC(=O)[C@H](CC(C)C)NC(=O)[C@@H](CCC(=O)N2CCCC2)NC(=O)[C@H](CC(C)C)NC(=O)[C@@H](CC(C)C)NC1=O,1.81
CC(C)C[C@@H]1NC(=O)[C@H](CC(C)C)NC(=O)[C@@H](CC(C)C)NC(=O)[C@H](C)NC(=O)[C@H](C)NC(=O)[C@@H](CC(C)C)NC(=O)[C@H](C)NC1=O,2.32

# Sample 3
# Target: Calcium/calmodulin-dependent protein kinase type II subunit alpha (CAMK2A, Homo sapiens, UniProt Q9UQM7)
# Chain of UniProt Q9UQM7 (whole entry, looked up): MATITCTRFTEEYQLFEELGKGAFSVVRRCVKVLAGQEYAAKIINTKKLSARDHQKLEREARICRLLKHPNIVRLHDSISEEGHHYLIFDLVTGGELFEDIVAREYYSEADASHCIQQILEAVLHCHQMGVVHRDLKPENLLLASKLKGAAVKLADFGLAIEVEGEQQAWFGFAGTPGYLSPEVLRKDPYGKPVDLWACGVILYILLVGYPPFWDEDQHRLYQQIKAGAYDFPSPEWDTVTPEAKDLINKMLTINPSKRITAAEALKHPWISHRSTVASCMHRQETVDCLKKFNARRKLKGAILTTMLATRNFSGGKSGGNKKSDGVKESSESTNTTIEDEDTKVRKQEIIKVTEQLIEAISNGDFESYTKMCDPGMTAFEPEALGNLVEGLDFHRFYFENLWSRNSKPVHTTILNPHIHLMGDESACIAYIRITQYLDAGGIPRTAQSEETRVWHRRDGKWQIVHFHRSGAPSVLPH
# Read-out: enzyme activity
# Mode: inhibitor
# Concentration: 10 µM
SMILES,inhibition
COc1cccc(CCC(=O)O)c1,2%
CCCCCCCCCCCCCC(=O)OC,29%
O=C(O)CCC(=O)Nc1ccc(S(=O)(=O)Nc2nccs2)cc1,-6%
O[C@H](c1ccccc1)[C@H](O)c1ccccc1,-28%
C=C1CCC[C@]2(C)C=C3OC(=O)C(C)=C3C[C@@H]12,-4%
CC(C)(C)c1cc(C(C)(C)C)c(NC(=O)c2c[nH]c3ccccc3c2=O)cc1O,0%

# Sample 4
# SMILES: CCCOc1ccc([C@@H]2[C@@H](C(=O)O)[C@H](c3ccc4c(c3)OCO4)CN2CC(=O)Nc2c(CC)cccc2CC)cc1
# Technique: CellTiter-Glo
# Host: human
# Medium: normal-adjacent epithelium
# Concentration: 0.1 µM
# Reference: DMSO
cell line,viability
normal organoid sample D,86.9% and 98.8%
normal organoid sample F,89.5% and 124%
normal organoid sample E,96.6% and 125%

# For quick reference, copied from above (sample 1):
target,remaining activity
"Tyrosine-protein kinase JAK1 (JAK1, Homo sapiens, UniProt P23458)",113%
"Serine/threonine-protein kinase PAK 6 (PAK6, Homo sapiens, UniProt Q9NQU5)",97.6%
"Ephrin type-A receptor 6 (EPHA6, Homo sapiens, UniProt Q9UF33)",87.1%
"Ephrin type-A receptor 2 (EPHA2, Homo sapiens, UniProt P29317)",103%
"Tyrosine-protein kinase Tec (TEC, Homo sapiens, UniProt P42680)",104%
